{"data": "Experimental data from different studies", "target": "Mitogen-activated protein kinase kinase kinase 2 (MAP3K2, Homo sapiens, UniProt Q9Y2U5)", "note": "Lines come from different studies, so protocols differ."}
{"Structure (SMILES)": "C=CC(=O)N1CCc2ccc(-n3c(=O)ccc4cnc5ccc(-c6cnn(C)c6)cc5c43)cc21", "test": "KINOMEscan", "setting": "1 µM", "scale": "baseline: DMSO control", "measurement": "remaining binding", "value": "99%"}
{"Structure (SMILES)": "C=CC(=O)N1CCCC(n2c(=O)c3ncccc3n(Cc3ccc(Oc4ccccc4)cc3)c2=O)C1 (stereo not shown)", "test": "cell-free assay, competition with immobilised ligand", "setting": "1 µM", "measurement": "remaining binding", "value": "78%"}
{"Structure (SMILES)": "CNC(=O)C[C@H](Cc1ccc(C#N)cc1)NC(=O)c1cc(-c2ccc(CN[C@H](C)c3ccc(C)cc3)o2)ccc1Cl", "test": "enzyme activity, inhibitor", "setting": "1 µM", "measurement": "activity vs control", "value": "108%"}
{"Structure (SMILES)": "CNC(=O)C1CCN(c2cc(C)c(F)cc2NC(=O)c2ccc(-c3cc(O)ccc3C)c(C)c2)CC1", "test": "binding, competition with immobilised ligand", "setting": "1 µM", "measurement": "remaining binding", "value": "92%"}
{"Structure (SMILES)": "COc1cc(Nc2nccc(-c3cnn4nc(OC)ccc34)n2)cc(C(F)(F)F)c1", "test": "binding, competition with immobilised ligand", "setting": "1 µM", "measurement": "remaining binding", "value": "87%"}
{"Structure (SMILES)": "Cc1cc(NC(=O)[C@H](O)c2cc(F)cc(F)c2)ccc1-c1cnc(N)c(C(=O)NC(C)C)c1", "test": "binding, competition with immobilised ligand", "setting": "0.1 µM", "measurement": "remaining binding", "value": "67%"}
{"Structure (SMILES)": "NC(=O)[C@@H](O)C[C@H]1CCc2sc3ncnc(O[C@H]4CC[C@H](N5CCOCC5)CC4)c3c21", "test": "enzyme activity, inhibitor", "setting": "10 µM", "measurement": "inhibition", "value": "6%"}
{"Structure (SMILES)": "Nc1ncc2c(n1)-c1c([nH]c3ccc(C4=CCOCC4)cc13)CCC2", "test": "binding, competition with immobilised ligand", "setting": "1 µM", "measurement": "remaining binding", "value": "87%"}
{"Structure (SMILES)": "CS(=O)(=O)Nc1cccc(-c2csc3cnc(Nc4ccc(N5CCN(CCCCCOc6cccc7c6C(=O)N(C6CCC(=O)NC6=O)C7=O)CC5)cc4)nc23)c1 (stereo not shown)", "test": "probe labelling, inhibitor, KiNativ chemoproteomics", "system": "MOLT-4", "setting": "1 µM", "measurement": "inhibition", "value": "-28.8%"}
{"Structure (SMILES)": "Cc1ccc(-c2c(/C=C(\\C#N)C(=O)NC(C)C)n(CCCO)c3ncnc(N)c23)cc1", "test": "cell-free assay, competition with immobilised ligand", "setting": "1 µM", "measurement": "remaining binding", "value": "66%"}
{"Structure (SMILES)": "COc1c(Cl)cccc1Nc1c(-c2ccncc2C#C[C@@]2(C)CCCN2C(=O)/C=C/CN(C)C)[nH]c2c1C(=O)NCC2", "test": "binding, competition with immobilised ligand", "setting": "3 µM", "measurement": "remaining binding", "value": "100%"}
{"Structure (SMILES)": "CNC1C[S+]2CC[S+]3CC[S+](C1)[Ru-4]321([N]=C=S)[n]2c3ccc(OC)cc3c3c4c(c5cc(F)c[n+]1c5c32)C(=O)NC4=O (stereo not shown)", "test": "KinomeScan", "setting": "0.1 µM", "scale": "baseline: untreated", "measurement": "remaining binding", "value": "100%"}
{"Structure (SMILES)": "CCn1cc(C(=O)O)c(=O)c2c(N)c(F)c(NC3CCCCC3)cc21", "test": "kinase activity", "setting": "0.1 µM, together with: ATP at Km", "measurement": "inhibition", "value": "-27.1%"}
{"note": "A few entries again:"}
{"Structure (SMILES)": "CCn1cc(C(=O)O)c(=O)c2c(N)c(F)c(NC3CCCCC3)cc21", "test": "kinase activity", "setting": "0.1 µM, together with: ATP at Km", "measurement": "inhibition", "value": "-27.1%"}
